# Results collected from several papers.
# Each line is one published result; not all experiments were run side by side. ± gives the spread as reported.
# ALPL: Alkaline phosphatase, tissue-nonspecific isozyme (ALPL, Homo sapiens, UniProt P05186)
# Sequence of UniProt P05186 (whole entry, looked up): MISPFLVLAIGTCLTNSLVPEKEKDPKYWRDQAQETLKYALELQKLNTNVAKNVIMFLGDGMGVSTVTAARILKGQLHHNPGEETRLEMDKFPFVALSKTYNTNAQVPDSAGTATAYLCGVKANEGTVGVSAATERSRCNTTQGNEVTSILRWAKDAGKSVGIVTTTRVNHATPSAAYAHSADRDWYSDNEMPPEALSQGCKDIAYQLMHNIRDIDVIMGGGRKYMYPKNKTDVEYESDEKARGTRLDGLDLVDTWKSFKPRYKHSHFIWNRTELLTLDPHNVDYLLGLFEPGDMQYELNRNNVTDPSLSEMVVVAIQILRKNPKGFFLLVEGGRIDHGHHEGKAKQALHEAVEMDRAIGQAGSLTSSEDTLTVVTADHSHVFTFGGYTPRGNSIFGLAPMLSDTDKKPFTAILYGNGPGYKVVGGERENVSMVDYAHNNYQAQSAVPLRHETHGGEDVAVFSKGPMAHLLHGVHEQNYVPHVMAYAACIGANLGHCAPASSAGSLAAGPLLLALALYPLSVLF
# Genome polyprotein NS2B-NS3 protease: Genome polyprotein, NS2B-NS3 protease (ZIKV, UniProt A0A024B7W1)
# Sequence of UniProt A0A024B7W1 (whole entry, looked up): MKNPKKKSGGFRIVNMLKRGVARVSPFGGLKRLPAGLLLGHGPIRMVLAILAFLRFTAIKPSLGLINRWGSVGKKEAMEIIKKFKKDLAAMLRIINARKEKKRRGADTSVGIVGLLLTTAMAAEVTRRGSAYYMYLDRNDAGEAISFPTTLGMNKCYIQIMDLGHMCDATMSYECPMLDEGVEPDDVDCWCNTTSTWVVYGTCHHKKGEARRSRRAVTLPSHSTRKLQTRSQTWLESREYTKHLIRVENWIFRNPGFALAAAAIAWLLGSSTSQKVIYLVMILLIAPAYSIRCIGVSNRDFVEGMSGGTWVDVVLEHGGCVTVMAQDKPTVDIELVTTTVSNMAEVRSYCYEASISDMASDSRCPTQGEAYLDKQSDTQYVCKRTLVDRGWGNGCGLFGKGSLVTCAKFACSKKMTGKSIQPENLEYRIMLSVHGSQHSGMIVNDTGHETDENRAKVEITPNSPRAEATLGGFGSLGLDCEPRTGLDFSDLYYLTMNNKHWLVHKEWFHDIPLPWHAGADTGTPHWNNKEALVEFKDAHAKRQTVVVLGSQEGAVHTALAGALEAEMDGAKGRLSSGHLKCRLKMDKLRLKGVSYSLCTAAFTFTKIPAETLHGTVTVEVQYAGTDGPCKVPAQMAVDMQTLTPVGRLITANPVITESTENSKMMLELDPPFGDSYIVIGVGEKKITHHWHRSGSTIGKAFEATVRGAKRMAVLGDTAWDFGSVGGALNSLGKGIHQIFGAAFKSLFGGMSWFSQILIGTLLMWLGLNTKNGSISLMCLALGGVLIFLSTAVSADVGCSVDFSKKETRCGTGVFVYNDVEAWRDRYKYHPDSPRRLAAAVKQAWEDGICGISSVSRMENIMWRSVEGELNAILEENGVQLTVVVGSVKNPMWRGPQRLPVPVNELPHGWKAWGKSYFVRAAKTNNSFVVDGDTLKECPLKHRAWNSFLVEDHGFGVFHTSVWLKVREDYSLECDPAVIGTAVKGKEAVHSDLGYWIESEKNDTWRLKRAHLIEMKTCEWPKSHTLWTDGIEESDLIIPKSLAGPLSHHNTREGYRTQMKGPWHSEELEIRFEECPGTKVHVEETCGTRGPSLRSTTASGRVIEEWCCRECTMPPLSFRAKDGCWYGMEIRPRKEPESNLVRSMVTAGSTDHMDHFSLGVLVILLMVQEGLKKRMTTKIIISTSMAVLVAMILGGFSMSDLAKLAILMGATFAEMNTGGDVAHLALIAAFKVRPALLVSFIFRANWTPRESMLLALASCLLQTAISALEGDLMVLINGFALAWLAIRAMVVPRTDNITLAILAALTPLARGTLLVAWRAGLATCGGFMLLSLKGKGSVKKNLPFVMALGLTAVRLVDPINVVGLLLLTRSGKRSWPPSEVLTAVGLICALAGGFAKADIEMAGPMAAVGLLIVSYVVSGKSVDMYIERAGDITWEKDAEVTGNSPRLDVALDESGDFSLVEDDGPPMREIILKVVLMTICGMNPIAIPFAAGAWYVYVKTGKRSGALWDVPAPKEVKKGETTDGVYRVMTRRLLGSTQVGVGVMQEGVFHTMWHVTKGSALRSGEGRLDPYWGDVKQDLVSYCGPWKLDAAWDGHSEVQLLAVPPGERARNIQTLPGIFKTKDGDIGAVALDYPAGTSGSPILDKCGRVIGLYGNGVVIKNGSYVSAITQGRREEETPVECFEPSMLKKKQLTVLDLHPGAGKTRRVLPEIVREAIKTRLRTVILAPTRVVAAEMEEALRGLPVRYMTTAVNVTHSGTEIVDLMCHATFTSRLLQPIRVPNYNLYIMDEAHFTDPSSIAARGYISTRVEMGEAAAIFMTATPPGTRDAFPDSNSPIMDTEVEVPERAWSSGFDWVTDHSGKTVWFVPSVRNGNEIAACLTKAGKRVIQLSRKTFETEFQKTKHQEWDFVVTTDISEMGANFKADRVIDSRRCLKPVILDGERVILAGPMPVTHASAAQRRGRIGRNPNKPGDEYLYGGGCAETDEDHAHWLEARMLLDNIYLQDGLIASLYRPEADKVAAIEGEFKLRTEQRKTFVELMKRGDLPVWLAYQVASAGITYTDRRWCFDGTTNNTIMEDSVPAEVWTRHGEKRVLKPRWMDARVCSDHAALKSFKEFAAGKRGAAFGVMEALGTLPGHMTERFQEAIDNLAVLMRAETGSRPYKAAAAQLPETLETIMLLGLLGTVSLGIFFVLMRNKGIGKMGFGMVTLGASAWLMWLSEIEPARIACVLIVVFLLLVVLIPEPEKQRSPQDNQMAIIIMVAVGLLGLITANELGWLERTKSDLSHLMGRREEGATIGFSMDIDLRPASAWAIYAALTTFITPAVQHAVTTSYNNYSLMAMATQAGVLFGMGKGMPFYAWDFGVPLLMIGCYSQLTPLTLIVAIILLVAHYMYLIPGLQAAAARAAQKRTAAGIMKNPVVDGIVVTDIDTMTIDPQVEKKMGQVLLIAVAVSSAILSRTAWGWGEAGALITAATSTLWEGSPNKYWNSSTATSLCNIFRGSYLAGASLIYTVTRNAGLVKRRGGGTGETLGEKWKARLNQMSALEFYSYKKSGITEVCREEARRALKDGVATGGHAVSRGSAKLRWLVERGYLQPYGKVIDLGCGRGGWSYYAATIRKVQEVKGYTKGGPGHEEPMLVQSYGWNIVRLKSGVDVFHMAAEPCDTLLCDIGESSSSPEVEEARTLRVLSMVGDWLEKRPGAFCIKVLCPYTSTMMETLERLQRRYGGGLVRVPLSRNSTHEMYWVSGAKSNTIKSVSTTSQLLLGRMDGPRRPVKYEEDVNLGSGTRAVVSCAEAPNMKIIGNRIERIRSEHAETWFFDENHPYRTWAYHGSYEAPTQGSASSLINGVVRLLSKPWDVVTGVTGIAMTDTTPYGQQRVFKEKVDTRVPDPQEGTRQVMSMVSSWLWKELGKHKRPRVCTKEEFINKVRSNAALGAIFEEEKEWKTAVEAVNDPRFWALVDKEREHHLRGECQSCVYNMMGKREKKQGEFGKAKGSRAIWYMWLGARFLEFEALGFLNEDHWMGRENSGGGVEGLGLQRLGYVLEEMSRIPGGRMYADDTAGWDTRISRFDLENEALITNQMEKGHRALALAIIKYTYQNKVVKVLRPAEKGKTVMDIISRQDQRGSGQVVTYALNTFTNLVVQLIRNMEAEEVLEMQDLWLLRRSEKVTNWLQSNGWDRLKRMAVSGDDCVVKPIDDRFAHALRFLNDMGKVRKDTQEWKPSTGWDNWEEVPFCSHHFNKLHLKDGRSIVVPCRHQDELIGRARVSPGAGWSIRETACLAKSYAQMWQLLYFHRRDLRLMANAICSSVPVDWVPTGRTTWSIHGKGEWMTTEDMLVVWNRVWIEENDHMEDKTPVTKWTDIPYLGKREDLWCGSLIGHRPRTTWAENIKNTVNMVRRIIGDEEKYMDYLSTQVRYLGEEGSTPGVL
# Proteasome component C5/PSMB5 chymotrypsin-like site: Proteasome component C5/PSMB5, chymotrypsin-like site (Homo sapiens, UniProt P20618+P28074)
# Sequence of UniProt P28074 (whole entry, looked up): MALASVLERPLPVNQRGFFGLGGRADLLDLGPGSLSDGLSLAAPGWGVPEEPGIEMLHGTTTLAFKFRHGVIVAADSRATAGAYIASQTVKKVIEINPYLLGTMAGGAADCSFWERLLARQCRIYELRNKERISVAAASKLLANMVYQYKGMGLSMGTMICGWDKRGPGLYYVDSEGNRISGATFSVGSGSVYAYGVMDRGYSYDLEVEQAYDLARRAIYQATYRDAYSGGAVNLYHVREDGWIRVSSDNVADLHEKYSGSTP
# topA: DNA topoisomerase 1 (topA, Escherichia coli, UniProt P06612)
# Sequence of UniProt P06612 (whole entry, looked up): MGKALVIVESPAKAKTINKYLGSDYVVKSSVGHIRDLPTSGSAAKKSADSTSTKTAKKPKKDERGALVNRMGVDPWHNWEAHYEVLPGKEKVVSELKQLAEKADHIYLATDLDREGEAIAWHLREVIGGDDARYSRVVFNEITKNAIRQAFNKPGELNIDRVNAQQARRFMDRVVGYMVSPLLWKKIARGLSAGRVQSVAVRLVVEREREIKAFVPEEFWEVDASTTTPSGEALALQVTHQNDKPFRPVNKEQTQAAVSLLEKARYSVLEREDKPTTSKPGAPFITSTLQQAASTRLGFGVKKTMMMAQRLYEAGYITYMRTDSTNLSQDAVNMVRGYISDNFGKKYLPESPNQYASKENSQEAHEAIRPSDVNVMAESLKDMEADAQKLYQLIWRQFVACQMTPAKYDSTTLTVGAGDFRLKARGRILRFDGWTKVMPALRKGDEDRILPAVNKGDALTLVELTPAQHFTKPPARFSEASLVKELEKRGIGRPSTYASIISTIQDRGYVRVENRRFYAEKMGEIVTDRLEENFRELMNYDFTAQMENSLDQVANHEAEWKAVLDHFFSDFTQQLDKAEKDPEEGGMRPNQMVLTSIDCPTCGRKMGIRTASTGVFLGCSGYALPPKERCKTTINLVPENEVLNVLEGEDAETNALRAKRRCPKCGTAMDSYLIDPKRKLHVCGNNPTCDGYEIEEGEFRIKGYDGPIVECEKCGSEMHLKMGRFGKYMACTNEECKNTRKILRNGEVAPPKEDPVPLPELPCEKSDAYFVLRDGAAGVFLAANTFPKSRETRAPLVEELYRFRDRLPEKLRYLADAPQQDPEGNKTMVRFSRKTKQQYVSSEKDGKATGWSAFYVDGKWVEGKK
SMILES,target,assay,system,setting,IC50 [µM]
COc1ccc(C)cc1S(=O)(=O)Nc1cccnc1,ALPL,"enzyme activity, inhibitor, colorimetric OD405",,"HTS library sample, added: 0.5 mM pNPP",0.708
CN1CCC(Oc2ccc(Cl)cc2C(=O)Nc2ccc([N+](=O)[O-])cc2Cl)CC1,"Genome polyprotein, NS2B-NS3 interaction (dengue virus type 2, UniProt P29990)","NS2B-NS3 interaction, inhibitor, split luciferase complementation",dengue virus 2,,10.8
CCn1nc(-c2ccccc2)nc2c(=O)n(C)c(=O)nc1-2,"Cathepsin B (CTSB, Homo sapiens, UniProt P07858)","enzyme activity, inhibitor, fluorescence",,,0.071
CC(C)CN(C[C@@H](O)[C@H](Cc1ccccc1)NC(=O)O[C@H]1CO[C@H]2OCC[C@H]21)S(=O)(=O)c1ccc(N)cc1,"Solute carrier organic anion transporter family member 1B3 (SLCO1B3, Homo sapiens, UniProt Q9NPD5)","transport, inhibitor",,"10 (unit not given), pre-incubation, added: cholecystokinin",7.6 ± 1.3
Nc1ncnc2c1c(-c1cnc3[nH]ccc3c1)nn2C1CCCC1,"Mitogen-activated protein kinase kinase kinase 2 (MAP3K2, Homo sapiens, UniProt Q9Y2U5)","ATPase activity, inhibitor, ADP detection",,,0.03
Cc1cc(O)ccc1-c1cc(Br)c(-c2ccc(O)cc2C)[se]1,"Estrogen receptor beta (ESR2, Homo sapiens, UniProt Q92731)",antagonist,HEK293T,added: estradiol 10 nM,2.96
COc1ccc(-c2nc3cc4nc5ccccc5nc4cc3[nH]2)cc1OC,"Genome polyprotein, protease (dengue virus type 2, UniProt P29990)","enzyme activity, inhibitor, fluorescence",,pH 8.5,129
NCc1ccc(-c2ncc(OCC3CCNCC3)nc2-c2cn[nH]c2)cc1,Genome polyprotein NS2B-NS3 protease,inhibitor,Zika virus,,5.8
CC(O)C(C)OC(=O)[C@@H]1C[C@@H]2c3cccc4c3c(cn4C(C)C)C[C@H]2N(C)C1 (stereo partly drawn),human MBNL1,"CUG repeat RNA binding, inhibitor, HTRF",,added: biotin-(CUG)12 RNA,25.1
COP(=O)(OC)SCn1nnc2ccccc2c1=O,rat liver carboxylesterase,"enzyme activity, inhibitor","rat, postnatal day 1, liver homogenate",added: p-nitrophenyl valerate,0.182
CC(C)C[C@H](NC(=O)CN)C(=O)N[C@@H](C)C(=O)N[C@@H](C)C(=O)N[C@@H](C)C(=O)N[C@H](C(=O)N[C@H](C(=O)N[C@@H](C)C(=O)N[C@H](C(=O)O)C(C)C)C(C)C)C(C)C,"HLA class I histocompatibility antigen, A alpha chain, allele A*02:03 (Homo sapiens, UniProt P04439)","peptide binding, radiolabelled peptide competition",,added: radiolabelled standard peptide,0.0013
c1nc2c(NCc3ccc(CCNCCCNC4CCCCC4)cc3)nc(N3CCNCC3)nc2[nH]1,"C-X-C chemokine receptor type 4 (CXCR4, Homo sapiens, UniProt P61073)","ligand displacement, radioligand",,cell membranes,0.0164
O=S(=O)(O)Oc1cc(Cl)c(-c2cc(Cl)ccc2Cl)cc1Cl,"Sulfotransferase 1E1 (SULT1E1, Homo sapiens, UniProt P49888)","enzyme activity, inhibitor, radiometric",,pH 7.4,> 10
NCc1ccc(-c2ncc(OCC3CCNCC3)nc2-n2ccnc2)cc1,Genome polyprotein NS2B-NS3 protease,inhibitor,Zika virus,,6.6
NNCCc1ccccc1,"Beta-glucuronidase (uidA, Escherichia coli, UniProt P05804)","enzyme activity, inhibitor",,,2.28
Oc1c(Cl)cc(-c2ccccc2Cl)cc1Cl,"Sulfotransferase 1A1 (Sult1a1, Rattus norvegicus, UniProt P17988)","enzyme activity, inhibitor",,,0.34
Oc1ccc(-c2cccc(Cl)c2)cc1Cl,"Sulfotransferase 2A1 (SULT2A1, Homo sapiens, UniProt Q06520)","enzyme activity, inhibitor, radiometric",,pH 7.4,23
[I-].[Na+],"Beta-lactamase OXA-48 (OXA-48, Klebsiella pneumoniae, UniProt Q6XEC0)","enzyme activity, inhibitor",,"pH 7.2, with preincubation",14000
CN(Cc1ccc(S(=O)(=O)N2CCOCC2)cc1)c1ccc2c3c(cccc13)C(=N)N2,"SHMT (Plasmodium falciparum, UniProt Q8I566)","enzyme activity, radiometric",,"20 min, 37 °C, added: serine 0.2 mM, THF 1 mM",150
CN1C(=O)[C@]23SS[C@@]1(C)C(=O)N2[C@H]1Nc2ccccc2[C@@]1([C@@]12c4ccccc4N[C@@H]1N1C(=O)[C@@]4(C)SS[C@]1(C(=O)N4C)[C@H]2O)[C@@H]3O,"Histone-lysine N-methyltransferase EHMT2 (EHMT2, Homo sapiens, UniProt Q96KQ7)","enzyme activity, inhibitor, radiometric",,,0.538
Clc1ccc(Cl)c(-c2c(Cl)ccc(Cl)c2Cl)c1Cl,"Estrogen receptor (ESR1, Homo sapiens, UniProt P03372)","reporter gene, antagonist, ER-CALUX",T47D.Luc,"24 h, added: estradiol 5 pM",15.9
CCCC(=O)N[C@@H](C)C(=O)N[C@@H](C(=O)N[C@@H]1C(=O)N[C@@H](CC(C)C)C(=O)N[C@H]2CC[C@@H](O)N(C2=O)[C@@H](Cc2ccccc2)C(=O)N(C)[C@@H](Cc2ccc(O)cc2)C(=O)N[C@@H](C(C)C)C(=O)O[C@H]1C)[C@@H](C)OC(=O)[C@H](C)NC(=O)CCC,"Chymotrypsinogen A (Bos taurus, UniProt P00766)","enzyme activity, inhibitor",,with preincubation,0.22
CC(=O)c1cccc(NC(=O)C(=O)[C@H](CC(C)C)NC(=O)[C@H](Cc2ccccc2)NC(=O)[C@H](CC(C)C)NC(=O)OCc2ccccc2)c1,Proteasome component C5/PSMB5 chymotrypsin-like site,"enzyme activity in cells, inhibitor",,,0.061
CCCCCc1cc(OC(=O)c2c(CCCCC)cc(OCc3ccccc3)cc2OCc2ccccc2)cc(O)c1C(=O)OCc1ccccc1,topA,"enzyme activity, inhibitor",,,> 1000
c1cncc(OC[C@@H]2CCN2)c1,mouse brain nicotinic receptors,,brain,"high-affinity site, averaged regions",0.00026
Fc1cccc(-n2cnc3c(NCc4nc5c(F)c(F)ccc5[nH]4)nc(N4CCOCC4)nc32)c1,"Cyclin-dependent kinase 4, with cyclin D3 (CDK4, Homo sapiens, UniProt P11802)","enzyme activity, inhibitor",,,0.368
O=C(O)c1cc(-c2ccccc2Cl)n[nH]1,ALPL,"enzyme activity, inhibitor, luminescence",,"added: 0 M DEA, 50 µM CDP-star",0.178 ± 0.007
CC(C)C[C@H](NC(=O)[C@H](C)NC(=O)[C@H](Cc1c[nH]c2ccccc12)NC(=O)[C@H](C)NC(=O)[C@H](C)NC(=O)[C@H](CC(C)C)NC(=O)[C@H](C)N)C(=O)O,"Transcriptional regulator ComR (Streptococcus mutans serotype c, UniProt Q8DWI6)",,Streptococcus mutans,,10
CC12CC3CC1(C)C1(C)CC3(N)CC21C,"Glutamate NMDA receptor; Grin1/Grin2a (Grin1/Grin2a, Rattus norvegicus, UniProt P35439+Q00959)","glutamate-evoked current, inhibitor, whole-cell patch clamp",tsA201 cells,"holding potential -65 mV, added: 1 mM glutamate",2.78 ± 0.25
Nc1ccc2c(c1)Oc1c(F)c(F)cc3c(=O)c(C(=O)O)cn-2c13,topA,"enzyme activity, inhibitor",,,0.8 to 2
CN(Cc1cccc(-c2ccncc2)c1)C(=O)OC(C(F)(F)F)C(F)(F)F,"Monoacylglycerol lipase ABHD6 (Abhd6, Mus musculus, UniProt Q8R2Y0)",competitive ABPP,mouse brain membrane proteome,,0.038
CC(=O)c1cccc(NC(=O)C(=O)[C@H](CC(C)C)NC(=O)[C@H](Cc2c[nH]c3ccccc23)NC(=O)[C@H](CC(C)C)NC(=O)OCc2ccccc2)c1,Proteasome component C5/PSMB5 chymotrypsin-like site,"enzyme activity in cells, inhibitor",,,0.0295
O=C1OC2(c3cc(Cl)c(O)cc3Oc3cc(O)c(Cl)cc32)c2ccccc21,"Dual specificity protein phosphatase 5 (Homo sapiens, UniProt Q16690)",phosphatase activity,,"0 min, without DTT, initial velocity, added: pNPP",241 ± 5.3
